Results pooled from the literature.
Lines come from different studies, so protocols differ. Numbers after ± are the reported error. In brackets after ≈: the same amount, converted by molar mass.

| Structure (SMILES) | target or system | assay | test system | setting | scale | quantity | result |
| --- | --- | --- | --- | --- | --- | --- | --- |
| COc1cc(CNC(=O)C[C@H](C)CCC=C(C)C)ccc1OCc1cn(-c2ccc(Cl)c(Cl)c2)nn1 | HCC 2998 | SRB | – | 10 µM, 48 h | – | growth percent | 93.5% |
| CC(=O)[O-].O.O.O.O.[Co+2].[O-]c1ccc(Br)cc1C=NCCN1CCOCC1 | Shigella flexneri | – | – | 20 µL of 100 µM per disc | – | inhibition zone diameter | 17 mm |
| CCCCC/C=C/C(=O)CCc1ccc(O)c(OC)c1 | mouse mAb 1-G12 | antibody binding, indirect competitive ELISA | – | added: coating antigen 4-OVA | – | IC50 | 0.136 µg/mL (≈ 0.492 µM) |
| CCN(CC)CC(=O)Nc1cccc(-n2cc(-c3ccc4ccc(-c5cn(-c6cccc(NC(=O)CN(CC)CC)c6)nn5)cc4c3)nn2)c1 | GLUT-1 | Western blot | nude mouse, tumour xenograft | ip, 15 mg/kg, 16 h | reference: vehicle | GLUT-1 protein level | 9.3% |
| COc1cc(CCC(C)=O)ccc1O | mouse mAb 1-G12 | antibody binding, indirect competitive ELISA | – | added: coating antigen 6-OVA | – | IC50 | 0.263 µg/mL (≈ 1.36 µM) |
| COc1cc(CNC(=O)C[C@H](C)CCC=C(C)C)ccc1OCc1cn(-c2ccccc2F)nn1 | SF-295 CNS cancer cells | SRB | – | 10 µM, 48 h | – | growth percent | 45.2% |
| COC1=CC(c2ccc[nH]2)=NC1=Cc1[nH]c(Cc2ccc(Cl)cc2)cc1Cc1ccc(Cl)cc1 | Plasmodium yoelii | – | Kenya strain MRA-428, mice | oral, 25 mg/kg daily for 4 days, day 5 | – | parasitaemia suppression | 100% |
| COc1cc(CNC(=O)C[C@H](C)CCC=C(C)C)ccc1OCc1cn(-c2ccccc2Cl)nn1 | HCC 2998 | SRB | – | 10 µM, 48 h | – | growth percent | 91.9% |
| CCc1c(C)[nH]c(C=NC23CC4CC(CC(C4)C2)C3)c1C | Plasmodium yoelii | – | Kenya strain MRA-428, mice | oral, 5 mg/kg daily for 4 days, day 5 | – | parasitaemia suppression | 24% |
| Cc1nc(C)c(C=[N+]([O-])C(C)(C)C)nc1C | – | Western blot, measured: TFAM | MPTP mouse model, substantia nigra cytosol | 90 mg/kg | – | increase in protein level | 55.2% |
| CC(C)(O)c1ccc(N2Cc3c(ccnc3-c3ccc(F)cc3OCC(F)(F)F)C2=O)cc1 | – | – | Gaucher disease mouse model, plasma | 10 mg/kg, single dose | reference: vehicle | glucosylceramide level | 85 ± 1% |

Some of these lines once more:
| Structure (SMILES) | target or system | assay | test system | setting | scale | quantity | result |
| --- | --- | --- | --- | --- | --- | --- | --- |
| Cc1nc(C)c(C=[N+]([O-])C(C)(C)C)nc1C | – | Western blot, measured: TFAM | MPTP mouse model, substantia nigra cytosol | 90 mg/kg | – | increase in protein level | 55.2% |
